Results from different studies.
± gives the spread as reported.
B1: BLI (Arabidopsis thaliana, UniProt Q9LIQ9); chain MASATSSRRQEDVEAGRRKLEQFRKRKAAEKAKKASQNTQPVDNSQQSVIDSDGAGASISNGPLKQSAESTSNETHTKDVYNLSFSNTAMDDGSKERSRQDDGQESVGKVDFSNSLELIGSSKDLTVNTRPEVVPYSNIDKQSSESFDRASTLRETASLFSGTSMQMDGFIHGSGLTSSRKDSLQPTTRMAGSFDEVAKNQQGSGELGGSIVQKPTLSSSYLFNSPDTSSRPSEPSDFSVNITSSSPLNSAKSEATVKRSRPSFLDSLNISRAPETQYQHPEIQADLVTSSGSQLSGSDGFGPSYISGRRDSNGPSSLTSGASDYPNPFEKFRSSLYPAANGVMPGFTDFSMPKQNDDFTALEQHIEDLTQEKFSLQRDLDASRALAESLASENSSMTDTYNQQRGLVNQLKDDMERLYQQIQAQMGELESVRVEYANAQLECNAADERSQILASEVISLEDKALRLRSNELKLERELEKAQTEMLSYKKKLQSLEKDRQDLQSTIKALQEEKKVLQTMVQKASSGGKSTDLSKNSTSRKNVSTSTEGLAISDTTPESSNQETDSTTLLESDSSNTAIIPETRQLTLEGFSLSVPADQMRVIHNINTLIAELAIEKEELVQALSSELSRSAHVQELNKELSRKLEAQTQRLELVTAQKMAIDNVSPEKQQPDTHVVQERTPIADEGDEVVERVLGWIMKMFPGGPSKRRTSKLL
B2: PPP2R2A loopless, /165-end 1-125 (UniProt P63151); chain MAGAGGGNDIQWCFSQVKGAVDDDVAEADIISTVEFNHSGELLATGDKGGRVVIFQQEQENKIQSHSRGEYNVYSTFQSHEPEFDYLKSLEIEEKINKIRWLPQKNAAQFLLSTNDKTIKLWKISNGEASPRRIFANAHTYHINSISINSDYETYLSADDLRINLWHLEITDRSFNIVDIKPANMEELTEVITAAEFHPNSCNTFVYSSSKGTIRLCDMRASALCDRHSKLFEEPEDPSNRSFFSEIISSISDVKFSHSGRYMMTRDYLSVKIWDLNMENRPVETYQVHEYLRSKLCSLYENDCIFDKFECCWNGSDSVVMTGSYNNFFRMFDRNTKRDITLEASRENNKPRTVLKPRKVCASGKRKKDEISVDSLDFNKKILHTAWHPKENIIAVATTNNLYIFQDKVN
B3: ATG32 1-381 (Saccharomyces cerevisiae, UniProt P40458); chain MVLEYQQREGKGSSSKSMPPDSSSTTIHTCSEAQTGEDKGLLDPHLSVLELLSKTGHSPSPMGQNLVTSIDISGNHNVNDSISGSWQAIQPLDLGASFIPERCSSQTTNGSILSSSDTSEEEQELLQAPAADIINIIKQGQEGANVVSPSHPFKQLQKIISLPLPGKEKTPFNEQDDDGDEDEAFEEDSVTITKSLTSSTNSFVMPKLSLTQKNPVFRLLILGRTGSSFYQSIPKEYQSLFELPKYHDSATFPQYTGIVIIFQELREMVSLLNRIVQYSQGKPVIPICQPGQVIQVKNVLKSFLRNKLVKLLFPPVVVTNKRDLKKMFQRLQDLSLEYGEDVNEEDNDDEAIHTKSRSYCRNKKAENSKKKSPKSNKKPKR
B4: PIN3 267-386 (Arabidopsis thaliana, UniProt Q9S7Z8); chain ADMYSVQSSRGPTPRPSNFEENCAMASSPRFGYYPGGGAGSYPAPNPEFSSTTTSTANKSVNKNPKDVNTNQQTTLPTGGKSNSHDAKELHMFVWSSNGSPVSDRAGLNVFGGAPDNDQG
B5: atpG 1-289 (Acinetobacter baumannii, UniProt A3M143); chain MANLKEIRAKVASIKSTQKITRAMQMVAASKMRRAQERMAQGRPYADNMRRVIAHLVQANPEYKHRYMVDRPVKRVGYIIVSSDRGLAGGLNINLFKKVVQHVKAQQEQSIEVQFALIGQKAVSFFKNYGGKVLGATTQIGDAPSLEQLTGSVQVMLDAFDKGELDRIYLVSNGFVNAMTQKPKVEQLVPLAPAEEGDDLNRTYGWDYIYEPEAEELLNGLLVRYIESMVYQGVIENVACEQSARMVAMKAATDNAGQLIKDLQLIYNKLRQAAITQEISEIVGGAAAV
B6: MSI3 (Arabidopsis thaliana, UniProt O22469); chain MAAEEGKDEAGLDQVEEEFSIWKRNTPFLYDLMISHPLEWPSLTLHWVPSTPIPYSKDPYFAVHKLILGTHTSGGAQDFLMVADVVIPTPDAEPGLGGRDQEPIVPKVEIKQKIRVDGEVNRARCMPQKPTLVGAKTSGSEVFLFDYARLSGKPQTSECDPDLRLMGHEQEGYGLAWSSFKEGYLLSGSQDQRICLWDVSATATDKVLNPMHVYEGHQSIIEDVAWHMKNENIFGSAGDDCQLVIWDLRTNQMQHQVKVHEREINYLSFNPFNEWVLATASSDSTVALFDLRKLTAPLHVLSKHEGEVFQVEWDPNHETVLASSGEDRRLMVWDINRVGDEQLEIELDAEDGPPELLFSHGGHKAKISDFAWNKDEPWVISSVAEDNSLQVWQMAESIYREDDEDEDDDDEGNQNAQHSNENQK

Molecule = B1 (BLI); tested on = VPS35A (Arabidopsis thaliana, UniProt Q7X659); assay = pull-down; measurement = binding; result = binds
Molecule = nonaarginine; tested on = PorA peptide pore; assay = peptide binding, planar bilayer single-channel recording; conditions = 0.5 µM, pH 7.4, +30 mV, trans side, 150 mM KCl; measurement = kon; result = 3.15e+07 ± 3e+06 M⁻¹ s⁻¹
Molecule = B2; tested on = ARPP19 (Homo sapiens, UniProt P56211); assay = NMR titration; measurement = binding; result = binds
Molecule = B3 (ATG32 1-381); tested on = Atg11, Alexa Fluor 594 label (Saccharomyces cerevisiae, UniProt Q12527); assay = fluorescence microscopy; system = liposomes; conditions = with: DGS-Ni-NTA 5 mol%; measurement = binding; result = binds
Molecule = NNDNPLFKSA (ITGB2 residues 748-757 (Homo sapiens)); tested on = TLN1 head domain 1-430 del139-168, fused to integrin β2 (UniProt P26039); assay = crystal structure; system = peptide; measurement = binding; result = binds
Molecule = insulin human; assay = refers to: PDK1 mRNA; system = EcoHIV-infected mouse, brain; conditions = i.p., dose not given; scale = baseline: PBS; measurement = fold change; result = 0.907
Molecule = B4 (PIN3 267-386); tested on = ROPGAP3 (Arabidopsis thaliana, UniProt Q8GYY5); assay = pull-down; conditions = in vitro; measurement = binding; result = binds
Molecule = B5 (atpG 1-289); tested on = atpD 1-464 (Acinetobacter baumannii, UniProt A3M144); assay = cryo-EM; measurement = binding; result = binds
Molecule = Polymyxin B; system = mouse; conditions = intraperitoneal, 30 mg/kg single dose, day 1; measurement = survival; result = 0%
Molecule = aspterric acid; assay = root length; system = Arabidopsis thaliana Col-0 seeds; conditions = 25 µg/mL; measurement = inhibition; result = 99.2%
Molecule = LQLQKGSDTEAQCE (INTS3 584-597; pS590/pT592); tested on = NBN 1-334 (Homo sapiens, UniProt O60934); assay = ITC; system = peptide; measurement = binding; result = binds
Molecule = B6 (MSI3); tested on = HAG2 (Arabidopsis thaliana, UniProt Q9FJT8); assay = pull-down; measurement = binding; result = binds
Molecule = MPQLNGGGGDDLGANDELISFKDEGEQEEKSSENSSAERDLADVKSSLVNESE (TCF7L2 1-53 (Homo sapiens, UniProt Q9NQB0)); tested on = CTNNB1 E462K (Homo sapiens, UniProt P35222); assay = BLI; measurement = binding; result = binds
Molecule = MSI2 (Arabidopsis thaliana, UniProt O22468); tested on = Histone H4 (Homo sapiens, UniProt P62805); assay = pull-down; measurement = binding; result = binds
Molecule = afsR (Streptomyces coelicolor, UniProt P25941); tested on = rpoB 1-1161 (Streptomyces coelicolor, UniProt Q9L0L0); assay = cryo-EM; measurement = binding; result = binds
Molecule = heparin sodium; system = healthy Chinese adult volunteers; conditions = continuous intravenous infusion, 8 IU/kg/h, 5 days; measurement = positive urine erythrocytes; result = 0%
